Results pooled from the literature.
Each line is one published result; not all experiments were run side by side. Values joined by “and” are separate records of one study, mostly repeats; a detail may differ. Numbers after ± are the reported error. Converted amounts (≈) assume the structure as drawn.

| Structure (SMILES) | test | system | setting | scale | quantity | value |
| --- | --- | --- | --- | --- | --- | --- |
| CC(C)[C@H](C(=O)O[C@H](C#N)c1cccc(Oc2ccccc2)c1)c1ccc(Cl)cc1 | measured: CYP3A4 | human, age 1 year |  |  | enzyme contribution to clearance | 1.74% |
| CC(C)n1c(C2CCNCC2)nc2c([N+](=O)[O-])c(Br)c(Br)cc21 | measured: Sepsis | AML patients | dose not given, all doses |  | grade ≥3 adverse events | 12% |
| CC(C)C[C@H](NC(=O)[C@H](CCCCN)NC(=O)OCC1c2ccccc2-c2ccccc21)C(=O)N[C@H](C(=O)N[C@@H](Cc1ccccc1)C(=O)N[C@@H](Cc1ccccc1)C(=O)N[C@@H](CCCCN)C(=O)NCC(=O)N[C@@H](Cc1ccccc1)C(=O)N[C@@H](C)C(=O)N[C@@H](Cc1c[nH]c2ccccc12)C(=O)N[C@@H](CC(N)=O)C(=O)N[C@H](C(=O)N[C@H]1CSSC[C@@H](C(=O)N[C@@H](Cc2c[nH]cn2)C(=O)N[C@@H](CCCNC(=N)N)C(=O)N[C@@H](CCCNC(=N)N)C(=O)N[C@@H](C)C(=O)N[C@@H](CC(N)=O)C(N)=O)NC(=O)[C@H](C(C)C)NC(=O)[C@H](CCCNC(=N)N)NC(=O)[C@H](C(C)C)NC(=O)CNC(=O)[C@H](CC(N)=O)NC(=O)[C@H](CCCNC(=N)N)NC(=O)[C@H](Cc2ccc(O)cc2)NC(=O)[C@H](C(C)C)NC1=O)C(C)C)C(C)C |  | ICR mouse, blood | intramammary, 5 mg/kg, day 5, 3 d dosing |  | globulin | 18.71 ± 0.17 g/L |
| COc1ccc(-c2c(-c3ccc(C#N)c(F)c3)nc(N3CCC(N)CC3)n(C)c2=O)cc1F | measured: maculo-papular rash | neuroendocrine neoplasm patients | oral, 60 mg, dose expansion |  | grade 3-4 TRAE incidence | 0% |
| CN1CCN(S(=O)(=O)c2cc([N+](=O)[O-])ccc2N(CCOS(C)(=O)=O)CCOS(C)(=O)=O)CC1 |  | naive NOD/SCID mice, pooled blood | intraperitoneal, 25 mg/kg, week 1 |  | potassium | 8 mmol/L |
| CC[C@H](C)[C@H](NC(=O)[C@H](CCCCN)NC(=O)[C@H](CCC(=O)O)NC(=O)[C@H](CCCCN)NC(=O)[C@H](CO)NC(=O)[C@H](CCCCN)NC(=O)[C@H](CCCNC(=N)N)NC(=O)[C@H](Cc1ccccc1)NC(=O)[C@H](Cc1ccccc1)NC(=O)[C@H](CC(=O)O)NC(=O)CNC(=O)[C@H](CC(C)C)NC(=O)[C@@H](N)CC(C)C)C(=O)NCC(=O)N[C@@H](CCCCN)C(=O)N[C@@H](CCC(=O)O)C(=O)N[C@@H](Cc1ccccc1)C(=O)N[C@@H](CCCCN)C(=O)N[C@@H](CCCNC(=N)N)C(=O)N[C@H](C(=O)N[C@H](C(=O)N[C@@H](CCC(N)=O)C(=O)N[C@@H](CCCNC(=N)N)C(=O)N[C@H](C(=O)N[C@@H](CCCCN)C(=O)N[C@@H](CC(=O)O)C(=O)N[C@@H](Cc1ccccc1)C(=O)N[C@@H](CC(C)C)C(=O)N[C@@H](CCCNC(=N)N)C(=O)N[C@@H](CC(N)=O)C(=O)N[C@@H](CC(C)C)C(=O)N[C@H](C(=O)N1CCC[C@H]1C(=O)N[C@@H](CCCNC(=N)N)C(=O)N[C@H](C(=O)N[C@@H](CCC(=O)O)C(=O)N[C@@H](CO)C(=O)O)[C@@H](C)O)C(C)C)[C@@H](C)CC)C(C)C)[C@@H](C)CC | LC-MS | 50% pooled human serum | 40 µM, 120 min, pH 7.5, 37 °C | relative to: 0 h | remaining intact peptide | 2.49% and 2.06% |
| CC[C@H](C)CCCCC(=O)N[C@@H](CCN)C(=O)N[C@H](C(=O)N[C@@H](CCN)C(=O)N[C@H]1CCNC(=O)[C@H]([C@@H](C)O)NC(=O)[C@H](CCN)NC(=O)[C@H](CCN)NC(=O)[C@H](CC(C)C)NC(=O)[C@@H](Cc2ccccc2)NC(=O)[C@H](CCN)NC1=O)[C@@H](C)O |  | critically ill patients, plasma | intravenous, 2.1 mg/kg/day, median |  | AUC(0-24 h) at steady state | 78.3 mg·h/L |
| CN1CC[C@@H](c2c(O)cc(O)c3c(=O)cc(-c4ccc(C(F)(F)F)cc4Cl)oc23)[C@@H]1CO | measured: Hypotension | AML | oral, 100 mg, intermittent dosing |  | patients with adverse event | 0% |
| CO[C@H]1C[C@@H]2CC[C@@H](C)[C@@](O)(O2)C(=O)C(=O)N2CCCC[C@H]2C(=O)O[C@H]([C@H](C)C[C@@H]2CC[C@@H](OC(=O)NCCOCCOCCOCCOCCOCCOCCOCCOCCC(=O)N3CCc4cc(Cn5nc(-c6ccc7oc(N)nc7c6)c6c(N)ncnc65)ccc4C3)[C@H](OC)C2)C[C@@H](O)[C@H](C)/C=C(\C)[C@@H](O)[C@@H](OC)C(=O)[C@H](C)C[C@H](C)/C=C/C=C/C=C/1C | phase 1 dose escalation, measured: fatigue | advanced solid tumour patients | intravenous, 16 mg weekly, grade ≥3 |  | dose-reducing adverse events | 0% |
| CCCCCCCC(=O)N[C@@H](CCCCN)C(=O)N[C@@H](CCCCN)C(=O)N[C@@H](C)C(=O)N[C@@H](CC(C)C)C(=O)N[C@@H](CCCCN)C(=O)N[C@@H](CC(C)C)C(=O)N[C@@H](C)C(=O)N[C@@H](CCCCN)C(=O)N[C@@H](CCCCN)C(=O)N1CCC[C@H]1C(=O)N[C@@H](CC(C)C)C(=O)N[C@@H](CCCCN)C(=O)N[C@@H](CC(C)C)C(=O)N[C@@H](CC(C)C)C(=O)N[C@@H](CCCCN)C(N)=O |  | female ICR CD-1 mice, whole blood | intravenous bolus, 1 mg/kg |  | AUC(0-inf) | 78 ± 14 ng·h/mL |
| O[C@H]1CCCN[C@@H]1CCCn1cnc2c(Cl)c(Cl)ccc21 |  | human, UGT2B7 NN phenotype, plasma | oral, 150 mg twice daily, steady state |  | AUCtau | 1360 ng·h/mL |
| N#C[C@@H]1CC(F)(F)CN1C(=O)CNC(=O)c1ccnc2ccc(OCCCN3CCN(C(=O)CN4CCN(CC(=O)[O-])CCN(CC(=O)[O-])CC4)CC3)cc12.[18F-].[Al+3] |  | healthy rat, small intestine | iv, 2 h |  | tissue uptake | 3.69 ± 0.51 %ID/g |
| COc1ccc(C[C@@H]2NC(=O)[C@H]([C@@H](C)O)NC(=O)[C@@H]3[C@@H]4CCN3C(=O)[C@@H]3Cc5cn(c6ccc(F)cc56)CCCCCCN(Cc5ccc(cc5)CCNC(=O)[C@]5(C)CCCN5C2=O)C(=O)CCC(=O)N[C@@H](C)C(=O)N[C@H](CNC(=O)CCCCC[N+](C)(C)C)C(=O)N[C@@H](Cc2cccc(c2)CNC(=O)CO4)C(=O)N3)cc1 | measured: medical device site reaction | human | dose not given |  | participants with adverse event | 0% |
| Nc1nc2cc(-c3ccc4ncc(C(=O)N5CCOCC5)n4c3)ccc2o1 |  | advanced solid tumour patients | dose not given, drug-related, all schedules | relative to: patients | grade ≥3 hyperglycaemia | 7% |
| O=C(Nc1ccccc1)C1CCN(C(=O)Oc2cccnc2)CC1 |  | healthy women | oral, 60 mg, 7 days |  | adverse event Nausea | 0% |
| C[C@@H]1NC(=O)[C@H](CCCCNC(=O)CO/N=C/C(=O)NCCCC[C@@H]2NC(=O)[C@@H](Cc3ccccc3)NC(=O)[C@H](CC(=O)O)NC(=O)CNC(=O)[C@H](CCCNC(=N)N)NC2=O)NC(=O)CNC(=O)[C@@H]2CCCN2C(=O)[C@H](CCCCNC(=O)CO/N=C/C(=O)NCCCC[C@@H]2NC(=O)[C@@H](Cc3ccccc3)NC(=O)[C@H](CC(=O)O)NC(=O)CNC(=O)[C@H](CCCNC(=N)N)NC2=O)NC(=O)[C@H](CCCCNC(=O)[C@H](CCCCN)NC(=O)[C@H](Cc2ccccc2)NC(=O)CNC(=O)CN2CCCNCCNCCCNCC2)NC(=O)[C@H](CCCCNC(=O)CO/N=C/C(=O)NCCCC[C@@H]2NC(=O)[C@@H](Cc3ccccc3)NC(=O)[C@H](CC(=O)O)NC(=O)CNC(=O)[C@H](CCCNC(=N)N)NC2=O)NC(=O)CNC(=O)[C@@H]2CCCN2C(=O)[C@H](CCCCNC(=O)CO/N=C/C(=O)NCCCC[C@@H]2NC(=O)[C@@H](Cc3ccccc3)NC(=O)[C@H](CC(=O)O)NC(=O)CNC(=O)[C@H](CCCNC(=N)N)NC2=O)NC1=O [copper-64 labelled] |  | normal mice, kidney | intravenous, 0.74 MBq, 3 h post-injection |  | tissue uptake | 36.6 ± 3.6 %ID/g |
| COc1ccc([C@@H](O)c2cc(-c3ncnc4cc(N5CCOCC5)ccc34)c(F)cc2Cl)nn1 |  | patients, advanced solid tumours | oral, 100 mg twice daily, treatment-emergent, together with: avelumab | relative to: patients | vascular disorders incidence | 2% |
| CCN1CCN(Cc2ccc(Nc3ncc(F)c(-c4cc(F)c5nc6n(c5c4)[C@H](C)CCC6)n3)nc2)CC1 |  | advanced solid tumour patients | dose not given, Phase Ia monotherapy |  | Vomiting incidence, grade ≥3 | 4.2% |
| COc1cc2c(Oc3ccc4[nH]c(C)cc4c3F)ccnc2cc1OCC1(N)CC1 |  | paediatric recurrent refractory sarcoma | 8 mg/kg |  | grade 1 or 2 Rash | 20% |
| Cn1c(-c2ccc(C(N)=O)cc2F)nnc1C(C)(C)Oc1c(F)cc(Cl)cc1F |  | human | oral, 6 mg, single ascending dose |  | musculoskeletal disorder TEAE | 16.7% |
| CCN(CCO)CCCC(C)Nc1ccnc2cc(Cl)ccc12 (stereo not drawn) |  | newly diagnosed glioblastoma patients | oral, 200 mg/dose, grade 1, together with: radiotherapy and temozolomide |  | fatigue patients | 33% |
| Cn1ncc(-c2nc(N[C@H]3CC[C@H](N)CC3)ncc2Cl)c1CC1CC1 | phase I dose escalation | human patients | dose not given, treatment-related grade 3 or higher |  | aspartate aminotransferase increase incidence | 3.2% |
| CC(=O)c1c(C)c2cnc(Nc3ccc(C4CCN(CCS(C)(=O)=O)CC4)cn3)nc2n(C2CCCC2)c1=O |  | human, plasma | oral, 50 mg, day 1 single dose |  | Vd | 2750 L |
| CCc1ccc(CC/C=C/c2ccc3c(c2)C(=O)CC3)cc1 |  | Sprague-Dawley rat, male, blood | oral, 450 mg/kg/day, 14 days |  | mean platelet volume | 11.5 fL |
| COc1cc(Nc2ncc(F)c(Nc3ccc4c(n3)NC(=O)C(C)(C)O4)n2)cc(OC)c1OC |  | non-kinase assay buffer | 3 h, pH 7.5, 1% DMSO |  | solubility | 1.8 µM (≈ 0.847 µg/mL) |
| O=c1cc(-c2ccc(O)c(O)c2)oc2cc(O)cc(O)c12 |  | male Sprague-Dawley rat, obese | oral, 100 mg/kg of neohesperidin, 0 to 12 h, after β-glucuronidase/sulfatase hydrolysis |  | urinary excreted amount, total | 186 ± 28.5 ng |
| CCN1[C@@H](C(=O)NC23CCC(C(=O)O)(CC2)CC3)[C@H](c2cccc(Cl)c2F)[C@]2(C(=O)Nc3cc(Cl)ccc32)C12CCCCC2 |  | patients with advanced solid tumours | oral, 150 mg |  | Hypercholesterolemia incidence | 0% |
| COc1cccc(Oc2ccccc2NC(=O)CNC(=O)c2cccc3ccccc23)c1 |  | esterase-deficient SCID mice, male | oral, 40 mg/kg/day, 14 days, toxicity study |  | alkaline phosphatase | 93 U/L and 104 U/L and 92 U/L |
| O.O.O.O.O.O.[Cl-].[Cl-].[Co+2] |  | Crl:CD(SD) rat female, blood | oral, 2.48 mg Co/kg/day, 90 days |  | red blood cell count | 8.11 ×10E6/µl |
| Cc1cc(C)c(CNC(=O)c2cc(Cl)c3c(c2C)O[C@@](C)([C@H]2CC[C@H](N(C)C)CC2)O3)c(=O)[nH]1 |  | relapsed/refractory NHL patients | dose not given, trial, safety set, treatment-related TEAE grade 5 |  | incidence of muscle spasms | 0% |
